Published values of several laboratories.
Parts stem from different laboratories: compare values within a part only. Substitutions count along the parent as printed.

Series 1
Target: CCNA1, cyclin fold, Cln2 fusion (human)
Technique: yeast growth competition, sequencing
Matrix: yeast
Setting: weak parent motif
Baseline: not given
Direction: higher = stronger binding
Starting sequence: MICAL3 docking peptide (human); LQLRRQLSFSEDS; partner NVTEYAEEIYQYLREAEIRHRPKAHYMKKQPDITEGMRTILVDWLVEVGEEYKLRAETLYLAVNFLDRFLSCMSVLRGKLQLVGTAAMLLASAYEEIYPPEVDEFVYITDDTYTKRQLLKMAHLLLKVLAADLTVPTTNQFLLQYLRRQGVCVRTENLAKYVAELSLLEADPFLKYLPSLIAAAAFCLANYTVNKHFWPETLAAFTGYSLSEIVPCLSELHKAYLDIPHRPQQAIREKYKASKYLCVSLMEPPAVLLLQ
Substitution | normalised enrichment score
Q6D | 0.0373
S10G | 0.655
F9W | 0.115
L3K | -0.115
S8L | 0.615
F9C | -0.0676
Q6H | -0.0104
F9P | 0.338
Q2T | 0.384
L7R | 0.0215
E11P | 0.464
F9G | 0.408
F9A | 0.207
R4M | -0.0201
E11D | 0.275

Series 2
Target: Interferon regulatory factor 5, full length, phosphomimetic (IRF5, Homo sapiens, UniProt Q13568-2, residues 1-514, K96S/S451D/S453D/S456D/S462D)
Technique: protein-binding microarray
Form: double-stranded DNA, one strand shown
Matrix: in vitro
Concentration: 250 nM
Setting: 60-bp whole probe
Together with: salmon DNA 0.4 mg/ml
Baseline: random background probes
Direction: higher = stronger binding
All sequences stand within: GCCTAGCAC … GTCTTGATTCGCTTGACGCTGCTG
Sequence | log fluorescence [z-score]
GACGGACTGGGGACTCGGGACGTGCTA | -0.643
AGTGGGGAGGGAGAGAATCCGTGCTAG | 0.0689
TCAGGTGTTCTTTTCTGACTGTGCTAG | 0.326
TTAGGTATCGACTTTCGGTGAGTGCTA | 8.93
TCACATCTGCAAGATCCAACTGTGCTA | 0.055
TTAGGACTGCTTTTCCTTTCGTGCTAG | 1.25
GACGAACTGGGGTATCGAGACGTGCTA | 0.197
GACGGTTTCGGTCTTGGGACGTGCTAG | 9.43
GACGATTTCGGGTTTCGTGACGTGCTA | 3.88
TTAGGTCTCCTTATCCTTGAGTGCTAG | -0.278
TCAATCTTAGATATTAAACTGTGCTAG | 0.71
TTAGATCTCAGTATGGATTAGTGCTAG | -0.00805
GACGAACTTGGGTATCGAGACGTGCTA | 0.463
GACGGTTTGGGGTTTCGGGACGTGCTA | 1.52
GACGAGTTCAGTATCGAGACGTGCTAG | 2.37
TTAGGACTTGGTATCGGTTAGTGCTAG | 6.95
TTAGGTATCGGGACTGGGATAGTGCTA | 1.96
TCAGCTTCCTAATTCTCACTGTGCTAG | 0.651

Series 3
Target: ABI1, truncated, D143A, DHFR fusion (Arabidopsis thaliana)
Technique: DHFR PCA, deep sequencing
Matrix: yeast
Setting: methotrexate growth selection, single substitutions
Together with: (+)-ABA 200 µM
Baseline: wild-type fitted maximum
Direction: higher = stronger binding
Starting sequence: PYL1, truncated, DHFR fusion (Arabidopsis thaliana); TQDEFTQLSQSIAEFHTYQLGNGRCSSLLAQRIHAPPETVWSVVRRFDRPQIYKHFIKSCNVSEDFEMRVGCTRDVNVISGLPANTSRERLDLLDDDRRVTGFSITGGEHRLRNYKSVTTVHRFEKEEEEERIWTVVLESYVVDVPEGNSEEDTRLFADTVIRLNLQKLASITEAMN
Substitution | relative binding score
N149W | 4.17%
Y115H | 5.27%
T119L | 99.5%
E127L | 101%
D92R | 49.9%
K54H | 9.55%
W41R | -0.182%
I172V | 102%
I133M | 112%
N77T | 106%
S63L | 92.5%
E128T | 109%

Series 4
Target: Histone acetyltransferase KAT6A, both winged helices, GST fusion (KAT6A, Homo sapiens, UniProt Q92794, residues 1-181)
Technique: protein binding microarray
Form: double-stranded DNA, one strand shown
Matrix: in vitro
Concentration: not given
Setting: 8-mer, flanks averaged, mean of 2 arrays, mostly near background
Baseline: not given
Direction: higher = stronger binding
Target sequence (chain): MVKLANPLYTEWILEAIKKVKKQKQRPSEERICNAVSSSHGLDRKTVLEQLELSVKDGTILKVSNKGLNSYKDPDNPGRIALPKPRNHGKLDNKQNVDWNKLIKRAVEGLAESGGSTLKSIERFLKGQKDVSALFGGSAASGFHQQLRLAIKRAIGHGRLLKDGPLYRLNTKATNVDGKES
Sequence | E-score
ATCGCCGA | 0.334
ATGCCCTG | -0.178
AACTATGC | 0.0232
AGAGAGAA | -0.192
GACCCAAC | -0.16
ATCTGACA | -0.175
CTTCTTTA | 0.0302
ACGGGCAT | 0.243
GCACCGAA | 0.0502
ACCAGAGA | -0.18
CTACTGAG | -0.215
AGACCACC | -0.107
AGCGCAAG | 0.194
AAATTGAG | -0.183
AATCCTGG | -0.137
AGGCCAAC | -0.141
CGCGTACC | 0.274
AGTTCCGA | 0.137
CTCAACTA | -0.091
ACGCGTTA | 0.274
ACCTCAGG | -0.152
GTCCATGA | 0.019

Series 5
Target: RNA binding protein fox-1 homolog 2, RRM domain, GST-SBP tag (RBFOX2, Homo sapiens, UniProt O43251-10, residues 100-194)
Technique: RNA Bind-n-Seq
Form: RNA
Matrix: in vitro
Concentration: 365 nM
Setting: natural RNA segment, single round, ends assumed
Baseline: no-protein control
Direction: higher = stronger binding
All sequences stand within: GGGAGUUCUACAGUCCGACGAUC … UGGAAUUCUCGGGUGCCAA
Sequence | RBNS enrichment (R)
GACUUACCUGCGCAGAUCUGGAAGCCUUGAACUCGGAGUGCUGACUCUGCUACAUGGUACAGCUACCGCUAGACCUACAACUUAUGUACACAGUUGAUUUUGAUGUAUUU | 0.54
CAUGUUUAGUCAAAUUGGAAUCCACUCACCUGUUCCCUUUGUUUUCCCUAUCCCUUCUCCUGAGCACCCUUUGAUUUCUGAGGACAGUACUACCCAUUCAUCUAUUGUAG | 1.4
AUAUUAUUUUCUCUUUUGGUGUGGGAGAUCAAAGGUUUAAAGUCUAACUUCUAAGAUAUAUUUGCAGAAAGAAGCAACAUGACAAUAGAGAGAGUUAUGCUACAAUUAUU | 0.855
CUGCCUGGGAUGUUUUCGGGAACAAGAAUGUAUAUUUGCCUUAUCCCUGAACUUGGUUUAAUCAAAUCAAUGUGUGUAUUAGAAUAAAAGUCACAGCAUCAAAAAGCCAA | 1.02
AGAGUUUUAUGAGCUGUUAAGAAUGAGGUAGUUUCUCCUAGGACCCCCCAAAGACAGUGCAAGUAAUGACCGUUUGGAUCUCAUUCGUCGAUCUUUGAUAGUAUGUUCUG | 0.59
CUGUCUGCCCUCCCCAGGGGUGGAGGAGUCUCUGGGCCCCAGGAGGAUUCCCUCCCGGAGACUCGCACGGUGCUCCCUGCUCACGCGUUGUCACAGUUAGUCCGGAAAUG | 0.784
UAUUUAACUGUAAAAUGGAAUUUUGACUGAUUUGUUACAAUAAUAUAACUCUGAGAUGUGUGGAAGGGUCCAGUGCCCGGUUUCUAGGGCUAUGCAUGGAGGUGGGGUGG | 3.09
GAAUUGGAUCCAGGGGACCUGGGCUCAUUCUUCUUGGCUCACCAACCCUGCAGGCCUCAUCUUUCCCAAAACCCACUUUGUCUUGGUGGGAGUGGGUCCGCGCUGCUCUG | 0.522
CCUCUUGGGCCCCCUGCACUCGGUCUCCCCUGGAGUUUCUGAAUUCUCUCACCCAAGUCCCUACACAGUCAUGAACACCACACCCAAGCCUAGCCAUCCACCCCACACGG | 0.598
GAAAGGAACCCCUUUGAGAGGUCGCGAGGCCCAUCUUUACUAGGACCCUUCCAUCUCUCCUGGGACAGGCAGGAACCAGAGGGACCAGGGCUCAAAUCUUGUACUAUGUG | 0.638
AAAGAUUGUAGUCAGCAUUUCAUUUGAGAGAAUACAAGAAAUGAAUAAAUCUAUUAGGGCCAGGGCCUGGAGACUGGUUCUAAAACUCACAAAUUGAGGAGUGAAAUAGG | 1.72
UCAUAUAUGUAGGCUCUGAAAUGUUGUGAUGCUUAUUGCUUCUGUAUUUCUUCUCUACUCCCUAGUCUUAAUGUUUAACCUUGAAUGCUAUUAACUUAAAUAGCCAUUGA | 0.597

Series 6
Target: FOSB, bZIP domain (human)
Technique: DHFR protein complementation
Matrix: yeast
Setting: single substitutions, most at no-binding floor
Baseline: wild-type JUN-FOS pair
Direction: higher = stronger binding
Starting sequence: JUN, bZIP domain (human); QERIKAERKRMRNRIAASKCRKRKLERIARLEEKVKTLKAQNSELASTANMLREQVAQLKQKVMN; partner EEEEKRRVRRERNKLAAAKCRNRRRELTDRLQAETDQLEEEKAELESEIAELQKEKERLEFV
Substitution | binding fitness [natural log]
N42L | -0.0733
L45K | -0.822
S43V | -0.226
V35T | -0.388
Q58H | -0.121
K39L | -0.57
S43R | 0.0653
K36L | -0.122
T37Y | -0.111
S47I | 0.026

For quick reference, copied from above (series 6):
Substitution | binding fitness [natural log]
N42L | -0.0733
L45K | -0.822
S43V | -0.226
V35T | -0.388
Q58H | -0.121
K39L | -0.57
S43R | 0.0653
K36L | -0.122
T37Y | -0.111
S47I | 0.026
